Measured values pooled from the literature.
Compare with care: the assays were run in different laboratories. ≈ marks a conversion by molar mass, not a printed value.
4'-phosphopantetheinyl transferase PptT: 4'-phosphopantetheinyl transferase PptT (Mycobacterium tuberculosis, UniProt O33336)
UniProt O33336, sequence (whole entry, looked up): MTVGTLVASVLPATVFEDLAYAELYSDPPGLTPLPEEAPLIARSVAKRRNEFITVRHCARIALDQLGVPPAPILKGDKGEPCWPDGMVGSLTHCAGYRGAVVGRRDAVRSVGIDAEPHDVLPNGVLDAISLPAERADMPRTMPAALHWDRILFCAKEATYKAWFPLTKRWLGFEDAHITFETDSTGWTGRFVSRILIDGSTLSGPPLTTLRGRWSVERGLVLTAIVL
UniProt P42336, sequence (whole entry, unmodified, looked up): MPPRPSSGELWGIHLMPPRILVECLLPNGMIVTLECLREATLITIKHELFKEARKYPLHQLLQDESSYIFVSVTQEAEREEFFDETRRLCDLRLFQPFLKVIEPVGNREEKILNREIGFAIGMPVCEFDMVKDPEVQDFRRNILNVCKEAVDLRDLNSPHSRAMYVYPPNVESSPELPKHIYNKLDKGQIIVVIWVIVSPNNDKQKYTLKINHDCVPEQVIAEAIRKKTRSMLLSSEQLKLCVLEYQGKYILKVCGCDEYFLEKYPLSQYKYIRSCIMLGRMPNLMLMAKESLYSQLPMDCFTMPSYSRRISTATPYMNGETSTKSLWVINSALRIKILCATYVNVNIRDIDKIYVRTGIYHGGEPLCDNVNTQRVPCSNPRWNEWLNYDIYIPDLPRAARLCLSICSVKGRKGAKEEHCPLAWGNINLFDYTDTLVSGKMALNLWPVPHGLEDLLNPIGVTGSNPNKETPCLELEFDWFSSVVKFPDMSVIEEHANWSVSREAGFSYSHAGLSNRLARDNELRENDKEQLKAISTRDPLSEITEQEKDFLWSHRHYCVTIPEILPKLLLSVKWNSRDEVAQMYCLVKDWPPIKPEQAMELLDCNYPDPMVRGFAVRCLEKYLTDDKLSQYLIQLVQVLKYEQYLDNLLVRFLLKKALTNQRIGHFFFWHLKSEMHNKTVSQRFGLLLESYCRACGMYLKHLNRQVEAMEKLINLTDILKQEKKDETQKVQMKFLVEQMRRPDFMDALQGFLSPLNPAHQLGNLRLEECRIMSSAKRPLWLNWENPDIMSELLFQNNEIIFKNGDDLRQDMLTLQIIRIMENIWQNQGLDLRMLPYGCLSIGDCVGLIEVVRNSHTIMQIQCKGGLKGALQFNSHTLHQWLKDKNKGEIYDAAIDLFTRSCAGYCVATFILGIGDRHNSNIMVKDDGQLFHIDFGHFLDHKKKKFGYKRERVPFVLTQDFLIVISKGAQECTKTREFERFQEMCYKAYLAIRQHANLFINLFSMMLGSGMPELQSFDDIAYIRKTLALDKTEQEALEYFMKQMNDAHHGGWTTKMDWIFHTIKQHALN
UniProt P15056, sequence (whole entry, looked up): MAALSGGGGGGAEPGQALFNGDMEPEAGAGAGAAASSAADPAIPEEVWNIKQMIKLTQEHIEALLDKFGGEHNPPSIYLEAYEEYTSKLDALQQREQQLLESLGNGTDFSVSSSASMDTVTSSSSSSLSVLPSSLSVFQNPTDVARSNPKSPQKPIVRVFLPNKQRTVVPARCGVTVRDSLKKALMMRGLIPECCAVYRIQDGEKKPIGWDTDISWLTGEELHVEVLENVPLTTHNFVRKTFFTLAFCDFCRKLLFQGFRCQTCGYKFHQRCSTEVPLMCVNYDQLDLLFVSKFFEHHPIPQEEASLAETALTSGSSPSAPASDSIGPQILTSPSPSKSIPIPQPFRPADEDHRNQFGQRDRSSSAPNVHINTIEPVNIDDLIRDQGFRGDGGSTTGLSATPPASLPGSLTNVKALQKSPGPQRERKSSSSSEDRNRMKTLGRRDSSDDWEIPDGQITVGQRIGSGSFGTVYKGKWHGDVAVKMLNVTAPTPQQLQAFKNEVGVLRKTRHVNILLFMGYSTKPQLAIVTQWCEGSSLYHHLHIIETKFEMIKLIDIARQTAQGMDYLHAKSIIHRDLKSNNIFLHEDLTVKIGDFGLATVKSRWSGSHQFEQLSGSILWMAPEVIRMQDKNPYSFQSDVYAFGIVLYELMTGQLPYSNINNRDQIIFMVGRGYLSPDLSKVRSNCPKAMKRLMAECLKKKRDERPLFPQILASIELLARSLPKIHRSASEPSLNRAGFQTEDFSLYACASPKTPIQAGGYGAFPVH
UniProt Q8TDX7, sequence (whole entry, looked up): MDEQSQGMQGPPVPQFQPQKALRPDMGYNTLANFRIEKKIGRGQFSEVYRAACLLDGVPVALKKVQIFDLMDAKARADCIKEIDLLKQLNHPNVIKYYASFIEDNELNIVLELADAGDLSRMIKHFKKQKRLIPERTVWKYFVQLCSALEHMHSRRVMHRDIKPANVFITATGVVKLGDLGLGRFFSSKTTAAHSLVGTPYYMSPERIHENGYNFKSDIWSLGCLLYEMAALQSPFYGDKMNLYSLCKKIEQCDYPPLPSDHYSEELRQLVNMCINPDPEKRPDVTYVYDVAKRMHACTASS
UniProt P19525, sequence (whole entry, looked up): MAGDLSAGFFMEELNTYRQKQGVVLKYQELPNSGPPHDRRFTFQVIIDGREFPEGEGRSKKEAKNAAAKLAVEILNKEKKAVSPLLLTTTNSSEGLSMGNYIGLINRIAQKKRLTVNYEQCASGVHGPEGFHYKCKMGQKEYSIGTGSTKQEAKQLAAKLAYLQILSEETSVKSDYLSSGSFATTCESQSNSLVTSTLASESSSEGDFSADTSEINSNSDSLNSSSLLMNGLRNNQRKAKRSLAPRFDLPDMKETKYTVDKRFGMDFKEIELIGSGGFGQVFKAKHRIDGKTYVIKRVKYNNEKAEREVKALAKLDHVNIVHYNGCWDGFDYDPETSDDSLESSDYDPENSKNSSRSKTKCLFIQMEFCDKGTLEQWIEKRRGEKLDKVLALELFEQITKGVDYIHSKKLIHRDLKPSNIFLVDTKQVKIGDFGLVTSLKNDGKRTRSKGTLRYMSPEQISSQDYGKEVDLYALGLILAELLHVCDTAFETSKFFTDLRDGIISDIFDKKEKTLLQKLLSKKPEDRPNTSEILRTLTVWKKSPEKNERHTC

`O=c1cc(CSc2ccc(N=Cc3cccc(Cl)c3)cc2)occ1O` gave an IC50 of 77700 nM (ABTS scavenging, absorbance).
For `O=C(NNc1cccc(Cl)c1)c1nnc(CC23CC4CC(CC(C4)C2)C3)o1`, the EC50 was 5.56 µg/mL (≈ 14.4 µM) (Pyricularia grisea; microbial growth).
With `[2H]c1c([2H])c([C@]2([2H])CCCN2C(=O)C(C)(C)Oc2ccc3cn[nH]c3c2)c([2H])c([2H])c1C([2H])([2H])[2H]` the remaining binding was 75% (NEK7 (Homo sapiens, UniProt Q8TDX7); binding, competition with immobilised ligand; 1 µM).
`Cc1sc2c(c1C)C(c1ccc(Cl)cc1)=N[C@H](CC(=O)OC(C)(C)C)c1nnc(C)n1-2` has a viability of 202% (OCI-Ly1; cell growth or viability, ATP luminescence; 0.1 µM, 5 days).
`O=C(NNc1cc(F)ccc1F)c1nnc(CC23CC4CC(CC(C4)C2)C3)o1` has an EC50 of 6.25 µg/mL (≈ 16.1 µM) (Pyricularia grisea; microbial growth).
`CN(C)c1ccc(C(=O)NCCCCCCC(=O)NO)cc1` has a viability of 7.65% (HBL1; cell growth or viability, ATP luminescence; 1 µM, 5 days).
With `Cn1cc2c3c1C(=O)C(NCCc1ccc(O)cc1)=CC3=[N+](C)CC2` the IC50 was 45.8 nM (Babesia duncani; parasite growth, SYBR Green; 60 h, blood stage).
For `COC(=O)c1cc(-c2cccc(NC(=O)Nc3ccc(C)c(Cl)c3)c2)on1`, the MIC was over 64 µg/mL (Mycobacteroides abscessus; microbial growth, broth dilution; ATCC19977; 48 h).
With `COc1ncccc1-c1cnn2ccc(N3CCN(C(=O)OC(C)C)CC3)nc12` the remaining binding was 79% (EIF2AK2 (Homo sapiens, UniProt P19525); binding, competition with immobilised ligand; 1 µM).
`CCc1ccc(C=Nc2ccc(SCc3cc(=O)c(O)co3)cc2)cc1` has an IC50 of 12300 nM (ABTS scavenging, absorbance).
`Nc1ncc(-c2nc(N3CCOCC3)nc(N3CCOCC3)n2)c(C(F)F)n1` has a remaining binding of 0% (PIK3CA (Homo sapiens, UniProt P42336, M1043I); binding, competition with immobilised ligand; 10 µM).
The IC90 of `NCCCC[C@H]1NC(=O)[C@H](Cc2ccccc2)NC(=O)[C@@H](Cc2ccccc2)NC(=O)[C@H](Cc2ccccc2)NC(=O)[C@@H](CCCN)NC(=O)[C@H](CCCN)NC1=O` is reported as over 20000 nM (Balamuthia mandrillaris; parasite growth, ATP luminescence).
`N.N.[Cl][Pt][Cl]` has an inhibition of 97% (Raji; cell growth or viability, ATP luminescence; 10 µM, 72 h).
`NCCCC[C@@H]1NC(=O)[C@@H](CCCCN)NC(=O)[C@H](CO)NC(=O)[C@H](Cc2c[nH]c3ccccc23)NC(=O)[C@@H](Cc2c[nH]c3ccccc23)NC(=O)[C@H](Cc2ccccc2)NC(=O)[C@@H](CCCCN)NC1=O` has an IC90 of over 16 µg/mL (Balamuthia mandrillaris; parasite growth, ATP luminescence).
The MIC of `COC(=O)c1cc(-c2cccc(NC(=S)Nc3cccc(Br)c3)c2)on1` is reported as over 64 µg/mL (Escherichia coli; microbial growth, broth dilution; ATCC25922).
For `Cn1cc2c3c1C(=O)C(N)=CC3=NCC2`, the IC50 was 2800 nM (Babesia duncani; parasite growth, SYBR Green; 60 h, blood stage).
For `O=C(NNc1ccc(Cl)c(Cl)c1)c1nnc(C23CC4CC(CC(C4)C2)C3)o1`, the inhibition was 45.1% (Pyricularia grisea; microbial growth; 50 µg/mL).
With `O=c1cc(CSc2ccc(N=Cc3ccc(Cl)cc3)cc2)occ1O` the IC50 was 30 nM (ABTS scavenging, absorbance).
`C[N+]1=C2C=C(N/C=C/c3ccc(O)cc3)C(=O)c3[nH]cc(c32)CC1` gave an IC50 of 208 nM (Babesia duncani; parasite growth, SYBR Green; 60 h, blood stage).
`Cc1nn(C)cc1-c1nc2c(N3CCN(Cc4ccc(Cl)cc4)CC3)c(Cl)cnc2[nH]1` has a remaining binding of 100% (BRAF (Homo sapiens, UniProt P15056); binding, competition with immobilised ligand; 1 µM).
With `O=C(NNc1ccc(F)c(F)c1)c1nnc(C23CC4CC(CC(C4)C2)C3)o1` the EC50 was over 50 µg/mL (Pyricularia grisea; microbial growth).
`O=c1cc(CSc2ccc(N=Cc3cccc(Br)c3)cc2)occ1O` gave an IC50 of 3280 nM (ABTS scavenging, absorbance).
For `Cc1cc(=O)oc2cc(OCCCC[Se]C#N)ccc12`, the GI50 was 2600 nM (SW1573; cell growth or viability, SRB).
For `O=c1cc(CSc2ccc(N=Cc3ccc([N+](=O)[O-])cc3)cc2)occ1O`, the IC50 was 56000 nM (ABTS scavenging, absorbance).
For `CC(C)[C@H]1NC(=O)[C@@H](C)NC(=O)[C@H](Cc2c[nH]c3ccccc23)NC(=O)[C@@H](CCCN)NC(=O)[C@H]([C@@H](C)O)NC(=O)[C@@H](CCCN)NC(=O)[C@H](Cc2c[nH]c3ccccc23)NC(=O)[C@@H](C)NC1=O`, the IC50 was over 16 µg/mL (Balamuthia mandrillaris; parasite growth, ATP luminescence).
`O=c1c2cc(Cl)ccc2[nH]c(=S)n1Cc1ccccn1` gave an IC50 of 23200 nM (4'-phosphopantetheinyl transferase PptT; enzyme activity, inhibitor, FP).
`C[C@@H](O)[C@@H]1NC(=O)[C@H](Cc2ccccc2)NC(=O)[C@@H](Cc2ccccc2)NC(=O)[C@H]([C@@H](C)O)NC(=O)[C@@H](CCCN)NC(=O)[C@H](CCCNC(=N)N)NC(=O)[C@@H](CCCN)NC1=O` gave an IC90 of over 16 µg/mL (Balamuthia mandrillaris; parasite growth, ATP luminescence).
With `O=c1cc(CSc2ccc(N=Cc3cccc(O)c3)cc2)occ1O` the IC50 was 16600 nM (ABTS scavenging, absorbance).
With `CC(C)[C@H]1NC(=O)[C@H](Cc2ccccc2)NC(=O)CNC(=O)[C@@H](Cc2ccccc2)NC(=O)[C@H](CCCCN)NC(=O)[C@@H](CCCNC(=N)N)NC1=O` the IC50 was over 16 µg/mL (Balamuthia mandrillaris; parasite growth, ATP luminescence).
With `COc1ccc(Nc2nn3c(-c4ccccc4)ccnc3c2C(=O)Nc2ccccc2)cc1` the viability was 27.1% (Caco-2; cell growth or viability, MTT; 100 µg/mL, 48 h, serum-free).
`O=C(NNc1ccc(Cl)cc1)c1nnc(C23CC4CC(CC(C4)C2)C3)o1` gave an EC50 of 7.49 µg/mL (≈ 20.1 µM) (Pyricularia grisea; microbial growth).
`COc1ccc(Nc2nn3c(-c4ccccc4)ccnc3c2C(=O)Nc2ccc(Cl)cc2)cc1` gave a viability of 49.8% (A549; cell growth or viability, MTT; 25 µg/mL, 48 h, serum-free).
The IC50 of `O=c1c2cc(Cl)ccc2[nH]c(=S)n1Cc1ccncc1` is reported as 1620 nM (4'-phosphopantetheinyl transferase PptT; enzyme activity, inhibitor, FP).
For `C[C@@H](O)[C@@H]1NC(=O)[C@H](CCCNC(=N)N)NC(=O)[C@@H](Cc2ccccc2)NC(=O)[C@H](Cc2ccccc2)NC(=O)CNC1=O`, the IC90 was over 16 µg/mL (Balamuthia mandrillaris; parasite growth, ATP luminescence).
With `COC(=O)c1cc(-c2cccc(NC(=O)Nc3ccccc3C)c2)on1` the MIC was over 64 µg/mL (Acinetobacter baumannii; microbial growth, broth dilution; BAA1605).
`C[C@@H](O)[C@@H]1NC(=O)[C@H](Cc2ccccc2)NC(=O)[C@@H](Cc2ccccc2)NC(=O)[C@H]([C@@H](C)O)NC(=O)[C@@H](CCCN)NC(=O)[C@H](CCCN)NC(=O)[C@@H](CCCCN)NC1=O` gave an IC90 of over 16 µg/mL (Balamuthia mandrillaris; parasite growth, ATP luminescence).
For `O=C(NNc1cccc(Cl)c1)c1nnc(C23CC4CC(CC(C4)C2)C3)o1`, the EC50 was over 50 µg/mL (Pyricularia grisea; microbial growth).
`Cn1cc2c3c1C(=O)C(N)=CC3=[N+](C)CC2` has an IC50 of 2600 nM (Babesia duncani; parasite growth, SYBR Green; 60 h, blood stage).
With `CC(C)[C@@H]1NC(=O)[C@@H](CC(N)=O)NC(=O)[C@H](Cc2ccccc2)NC(=O)[C@@H](CCCN)NC(=O)[C@H](CCCN)NC(=O)[C@H]([C@@H](C)O)NC(=O)[C@@H](C(C)C)NC(=O)[C@H](C(C)C)NC(=O)[C@@H]([C@H](C)O)NC(=O)[C@@H](C(C)C)NC1=O` the IC90 was over 16 µg/mL (Balamuthia mandrillaris; parasite growth, ATP luminescence).
`O=C(NCCc1ncc(C(F)(F)F)cc1Cl)c1ccccc1C(F)(F)F` gave an EC50 of over 50 µg/mL (Pyricularia grisea; microbial growth).

A few entries again:
With `[2H]c1c([2H])c([C@]2([2H])CCCN2C(=O)C(C)(C)Oc2ccc3cn[nH]c3c2)c([2H])c([2H])c1C([2H])([2H])[2H]` the remaining binding was 75% (NEK7 (Homo sapiens, UniProt Q8TDX7); binding, competition with immobilised ligand; 1 µM).
With `COC(=O)c1cc(-c2cccc(NC(=O)Nc3ccccc3C)c2)on1` the MIC was over 64 µg/mL (Acinetobacter baumannii; microbial growth, broth dilution; BAA1605).
With `COc1ccc(Nc2nn3c(-c4ccccc4)ccnc3c2C(=O)Nc2ccccc2)cc1` the viability was 27.1% (Caco-2; cell growth or viability, MTT; 100 µg/mL, 48 h, serum-free).
